# Experimental data pooled from the literature.
# Compare with care: the assays were run in different laboratories. “And” joins repeats or separate records; there may be more than shown. ± gives the spread as reported.
# CYP2D6: Cytochrome P450 2D6 (CYP2D6, Homo sapiens, UniProt P10635)
# Sequence of UniProt P10635 (whole entry, looked up): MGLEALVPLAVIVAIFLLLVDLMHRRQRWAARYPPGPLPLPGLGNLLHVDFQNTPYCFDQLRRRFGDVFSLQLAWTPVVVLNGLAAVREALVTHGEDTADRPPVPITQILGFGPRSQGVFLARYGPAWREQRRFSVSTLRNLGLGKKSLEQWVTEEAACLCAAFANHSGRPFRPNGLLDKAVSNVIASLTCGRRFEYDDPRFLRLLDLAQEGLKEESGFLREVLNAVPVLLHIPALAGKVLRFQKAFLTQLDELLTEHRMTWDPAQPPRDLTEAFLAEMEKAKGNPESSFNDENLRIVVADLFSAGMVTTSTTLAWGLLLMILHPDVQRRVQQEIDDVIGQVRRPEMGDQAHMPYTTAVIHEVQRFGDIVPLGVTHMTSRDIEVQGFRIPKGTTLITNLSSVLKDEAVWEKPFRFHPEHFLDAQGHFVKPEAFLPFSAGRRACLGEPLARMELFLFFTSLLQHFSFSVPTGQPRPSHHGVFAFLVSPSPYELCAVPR
# CYP1A2: Cytochrome P450 1A2 (CYP1A2, Homo sapiens, UniProt P05177)
# Sequence of UniProt P10632 (whole entry, looked up): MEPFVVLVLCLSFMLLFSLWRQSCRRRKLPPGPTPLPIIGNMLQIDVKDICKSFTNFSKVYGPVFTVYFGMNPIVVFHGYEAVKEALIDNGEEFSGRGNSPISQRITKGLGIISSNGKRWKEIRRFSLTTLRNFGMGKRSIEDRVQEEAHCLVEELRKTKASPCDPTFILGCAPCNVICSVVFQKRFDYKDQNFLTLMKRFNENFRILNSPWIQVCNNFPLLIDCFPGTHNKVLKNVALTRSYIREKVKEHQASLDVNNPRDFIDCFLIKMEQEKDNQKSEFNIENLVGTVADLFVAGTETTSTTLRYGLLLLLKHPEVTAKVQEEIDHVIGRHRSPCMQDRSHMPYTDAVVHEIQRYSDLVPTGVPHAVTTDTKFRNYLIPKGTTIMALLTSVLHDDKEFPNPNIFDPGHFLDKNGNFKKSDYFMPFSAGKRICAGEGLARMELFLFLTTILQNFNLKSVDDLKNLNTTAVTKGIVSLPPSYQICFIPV
# Sequence of UniProt P05177 (whole entry, looked up): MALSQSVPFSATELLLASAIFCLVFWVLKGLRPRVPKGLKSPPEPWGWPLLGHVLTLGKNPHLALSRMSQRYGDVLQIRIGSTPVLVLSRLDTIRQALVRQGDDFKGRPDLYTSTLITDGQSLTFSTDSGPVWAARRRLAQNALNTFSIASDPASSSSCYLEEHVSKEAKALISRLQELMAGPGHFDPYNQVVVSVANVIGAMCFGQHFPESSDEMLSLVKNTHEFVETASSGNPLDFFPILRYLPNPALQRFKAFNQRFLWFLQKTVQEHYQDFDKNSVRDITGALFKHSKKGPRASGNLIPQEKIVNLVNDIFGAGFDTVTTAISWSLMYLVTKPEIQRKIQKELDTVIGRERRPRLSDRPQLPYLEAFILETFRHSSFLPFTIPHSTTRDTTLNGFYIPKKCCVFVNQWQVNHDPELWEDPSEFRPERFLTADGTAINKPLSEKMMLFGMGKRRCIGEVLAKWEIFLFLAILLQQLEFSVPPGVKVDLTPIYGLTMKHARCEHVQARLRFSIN
# Sequence of UniProt Q96JM7 (whole entry, looked up): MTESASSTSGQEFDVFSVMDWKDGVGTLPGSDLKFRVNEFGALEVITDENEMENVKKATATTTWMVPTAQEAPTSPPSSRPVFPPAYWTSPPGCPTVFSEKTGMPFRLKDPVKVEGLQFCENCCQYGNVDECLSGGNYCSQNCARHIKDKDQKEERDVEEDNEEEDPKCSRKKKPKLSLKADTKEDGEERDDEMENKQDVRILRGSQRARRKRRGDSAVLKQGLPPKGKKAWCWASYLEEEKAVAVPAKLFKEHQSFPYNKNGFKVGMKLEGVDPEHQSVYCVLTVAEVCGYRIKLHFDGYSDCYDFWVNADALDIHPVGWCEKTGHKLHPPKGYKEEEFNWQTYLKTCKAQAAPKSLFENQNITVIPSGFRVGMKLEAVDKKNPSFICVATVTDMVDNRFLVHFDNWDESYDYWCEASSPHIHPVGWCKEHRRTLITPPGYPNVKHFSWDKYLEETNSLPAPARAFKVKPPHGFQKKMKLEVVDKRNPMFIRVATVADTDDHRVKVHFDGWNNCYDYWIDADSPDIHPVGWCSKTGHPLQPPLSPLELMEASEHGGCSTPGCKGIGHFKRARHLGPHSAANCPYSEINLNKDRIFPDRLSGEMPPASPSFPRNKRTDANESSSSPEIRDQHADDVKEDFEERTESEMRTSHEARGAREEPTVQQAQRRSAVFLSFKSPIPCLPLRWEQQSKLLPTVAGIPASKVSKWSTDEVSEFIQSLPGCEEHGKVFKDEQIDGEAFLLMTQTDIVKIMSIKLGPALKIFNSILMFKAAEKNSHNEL
# Sequence of UniProt P10636 (whole entry, looked up): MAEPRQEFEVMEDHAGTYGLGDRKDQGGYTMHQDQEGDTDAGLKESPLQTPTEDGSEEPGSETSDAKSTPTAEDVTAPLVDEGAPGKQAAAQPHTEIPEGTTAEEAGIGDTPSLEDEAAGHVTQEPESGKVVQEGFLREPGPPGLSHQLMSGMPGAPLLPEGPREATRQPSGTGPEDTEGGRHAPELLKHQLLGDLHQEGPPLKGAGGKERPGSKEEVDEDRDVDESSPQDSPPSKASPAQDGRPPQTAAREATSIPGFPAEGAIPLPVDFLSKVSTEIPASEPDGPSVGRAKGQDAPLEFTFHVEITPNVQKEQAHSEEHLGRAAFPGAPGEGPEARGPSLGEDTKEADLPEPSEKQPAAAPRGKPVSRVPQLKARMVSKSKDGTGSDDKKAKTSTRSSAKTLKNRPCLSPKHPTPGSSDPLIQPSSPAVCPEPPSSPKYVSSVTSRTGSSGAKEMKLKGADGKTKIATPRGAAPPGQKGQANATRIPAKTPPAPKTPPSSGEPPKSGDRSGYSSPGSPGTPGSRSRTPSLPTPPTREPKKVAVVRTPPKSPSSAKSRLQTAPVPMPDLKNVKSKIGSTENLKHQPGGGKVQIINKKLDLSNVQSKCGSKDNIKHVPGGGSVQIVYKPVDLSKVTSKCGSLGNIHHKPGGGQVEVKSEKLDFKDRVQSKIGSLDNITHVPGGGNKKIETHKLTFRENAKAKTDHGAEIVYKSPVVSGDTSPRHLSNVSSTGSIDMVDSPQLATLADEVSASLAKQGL
# Sequence of UniProt Q9H3R0 (whole entry, looked up): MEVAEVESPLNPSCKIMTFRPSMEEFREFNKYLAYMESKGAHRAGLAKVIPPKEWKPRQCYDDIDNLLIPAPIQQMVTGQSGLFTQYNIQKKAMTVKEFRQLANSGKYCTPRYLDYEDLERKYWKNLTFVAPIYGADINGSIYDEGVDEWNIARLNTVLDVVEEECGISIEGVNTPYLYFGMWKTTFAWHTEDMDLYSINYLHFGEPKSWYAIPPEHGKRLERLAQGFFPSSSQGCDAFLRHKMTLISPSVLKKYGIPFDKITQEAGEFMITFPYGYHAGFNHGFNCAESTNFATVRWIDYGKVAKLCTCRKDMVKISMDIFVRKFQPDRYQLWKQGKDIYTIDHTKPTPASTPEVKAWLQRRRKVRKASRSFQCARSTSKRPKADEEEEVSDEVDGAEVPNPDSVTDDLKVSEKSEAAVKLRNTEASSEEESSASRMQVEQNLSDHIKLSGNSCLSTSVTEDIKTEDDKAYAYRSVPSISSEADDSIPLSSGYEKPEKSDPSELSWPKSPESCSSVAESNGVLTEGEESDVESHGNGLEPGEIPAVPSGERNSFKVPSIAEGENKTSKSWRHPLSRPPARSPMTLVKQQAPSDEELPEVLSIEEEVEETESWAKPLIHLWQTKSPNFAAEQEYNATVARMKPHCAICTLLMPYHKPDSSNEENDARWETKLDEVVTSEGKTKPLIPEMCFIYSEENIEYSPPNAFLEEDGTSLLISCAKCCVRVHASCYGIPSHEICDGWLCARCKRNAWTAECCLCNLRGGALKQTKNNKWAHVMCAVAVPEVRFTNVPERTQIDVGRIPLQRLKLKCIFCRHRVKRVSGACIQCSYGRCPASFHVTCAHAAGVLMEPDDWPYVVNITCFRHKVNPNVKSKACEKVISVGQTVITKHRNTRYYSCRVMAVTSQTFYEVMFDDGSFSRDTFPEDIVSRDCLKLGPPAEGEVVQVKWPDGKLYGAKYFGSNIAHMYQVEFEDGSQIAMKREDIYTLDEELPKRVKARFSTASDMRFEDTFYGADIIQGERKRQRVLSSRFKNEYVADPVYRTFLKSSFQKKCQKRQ
# Sequence of UniProt P51589 (whole entry, looked up): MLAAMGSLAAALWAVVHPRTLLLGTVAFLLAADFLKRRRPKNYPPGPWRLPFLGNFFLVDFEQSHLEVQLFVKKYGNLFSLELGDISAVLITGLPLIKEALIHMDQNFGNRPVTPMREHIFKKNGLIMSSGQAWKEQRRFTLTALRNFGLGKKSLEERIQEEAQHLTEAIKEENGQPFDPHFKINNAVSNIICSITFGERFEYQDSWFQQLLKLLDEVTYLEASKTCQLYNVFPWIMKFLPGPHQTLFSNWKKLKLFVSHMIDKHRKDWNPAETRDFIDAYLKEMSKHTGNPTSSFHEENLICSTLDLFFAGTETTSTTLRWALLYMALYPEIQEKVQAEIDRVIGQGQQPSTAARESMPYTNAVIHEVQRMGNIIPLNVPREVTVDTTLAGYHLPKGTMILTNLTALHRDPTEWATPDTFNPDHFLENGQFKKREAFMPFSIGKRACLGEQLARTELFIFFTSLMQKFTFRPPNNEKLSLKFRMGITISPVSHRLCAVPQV
SMILES,target or system,assay,test system,setting,scale,endpoint,value
O=C(CN1CN(c2ccccc2)C2(CCN(C(=O)c3ccc4[nH]ncc4c3)CC2)C1=O)N(CCO)CC(F)(F)F,CYP2D6,"enzyme activity, inhibitor",,,,IC50,> 50 µM
[2H]c1c(NS(C)(=O)=O)c([2H])c2c(C(=O)c3ccc(OCCCN(CCCC)CCCC)cc3)c(CCCC)oc2c1[2H],"Cytochrome P450 2J2 (CYP2J2, Homo sapiens, UniProt P51589)",inactivator,,with: astemizole substrate,,kinact,0.03 ± 0.005 min⁻¹
Nc1nc(SCc2ccc(Cl)cc2)nn1S(=O)(=O)c1ccc2c(c1)CCO2,CYP1A2,"enzyme activity, inhibitor","human, liver microsomes",10 µM,,inhibition,34%
[18F]c1ncccc1-c1ccc2c(n1)[nH]c1ccncc12,"MAPT (Homo sapiens, UniProt P10636)",PET imaging,Alzheimer's disease patients,"intravenous, dose not given, first 5 min",,initial brain uptake,~4 SUV
O=C(c1ccc(C(=O)N2CCC(N3CCCCC3)CC2)cc1)N1CCC(N2CCCCC2)CC1,"Lethal(3)malignant brain tumor-like protein 3 (Homo sapiens, UniProt Q96JM7)",FRAP,human cells,1 µM,,FRAP recovery half-time,28.5 s
COC1CN([C@H]2CC[C@H]([C@@]3(C)Oc4c(Cl)cc(C(=O)NCc5c(SC)cc(C)[nH]c5=O)c(C)c4O3)CC2)C1,,"RNA-seq, refers to: APBB2 mouse homolog","mouse, HT-1376 xenograft, whole blood",dose not given,baseline: vehicle,log2 fold change,1.37
O=C(CN1CN(c2ccccc2)C2(CCN(C(=O)c3ccc4[nH]ncc4c3)CC2)C1=O)Nc1ccccn1,CYP2D6,"enzyme activity, inhibitor",,,,IC50,> 50 µM
CC(C)c1ccc(N(C)c2ccc3c(c2)OCC[C@H]3CNc2cnccc2C(=O)O)cc1,"KDM4C (Homo sapiens, UniProt Q9H3R0)",TR-FRET,,,,residence half-life,1.13 ± 0.0667 h
CN1CCCNC(=O)c2cccc(c2)C(=O)NCCCN(C)CCCNc2cccc3c2C(=O)c2cccc(c2C3=O)NCCC1,SAS,"RNA-Seq, refers to: TGDS mRNA",,"1 µM, 6 h",baseline: untreated cells,log2 fold change,0.639
Cc1ncsc1-c1ccc(C(C)NC(=O)C2CC(O)CN2C(=O)C(NC(=O)CCCCCCCCCCN2CCCC(Nc3ncc(Cl)c(Nc4ccccc4S(=O)(=O)C(C)C)n3)C2)C(C)(C)C)cc1 (stereo not shown),22Rv1,"RNA-seq, refers to: WDCP mRNA",,concentration not given,baseline: DMSO,log2 fold change,-1.31
CNC(=O)C1CCCN(C(=O)C2CC3CCC2N3C(=O)[C@@H]2C[C@@H](O)CN2C(=O)NCc2cccc(Cl)c2F)C1 (mixture of isomers),"Cytochrome P450 2C8 (CYP2C8, Homo sapiens, UniProt P10632)",preincubation without NADPH,human,16.7 µM,baseline: negative control,remaining activity,86.3% and 89.3% and 91.8%
CNS(=O)(=O)Nc1nccc(Cc2c(C)c3ccc(Oc4ncccc4F)cc3oc2=O)c1F,NCI-H524,cell viability,,7 days,,IC50,> 1 µM
C=CC(=O)Nc1cccc(Cn2ncc3cnc(Nc4cnn(CCOC)c4)nc32)c1,CAMK2G human,"binding, KINOMEscan",,100 nM,lower = stronger binding,percent of control,100%
CN(CC(F)(F)F)C(=O)CN1CN(c2ccccc2)C2(CCN(C(=O)c3ccc4[nH]ncc4c3)CC2)C1=O,CYP2D6,"enzyme activity, inhibitor",,,,IC50,20 µM
O=C(CCCCCCC(=O)Nc1ccccc1)NO,CYP1A2,"enzyme activity, inhibitor, Vivid fluorescent",,,,IC50,7.58 µM
COC1C(c2ccc(Cl)c(Cc3ccc(OC4CCOC4)cc3)c2)OC(CO)C(O)C1O (stereo not shown),CYP1A2,"enzyme activity, inhibitor","human, liver microsomes","10 µM, 10 min",,inhibition,< 1%
